# Published values from different studies.
# Compare with care: the assays were run in different laboratories.
# Organism: Pseudomonas aeruginosa
Compound,test,system,conditions,MIC
C#CCNC(=O)[C@H]1NC(=O)[C@H]2NC(=O)[C@H](NC(=O)[C@@H]3NC(=O)[C@H](CC(N)=O)NC(=O)[C@H](NC(=O)[C@@H](CC(C)C)NC)[C@H](O)c4ccc(c(Cl)c4)Oc4cc3cc(c4O[C@@H]3O[C@H](CO)[C@@H](O)[C@H](O)[C@H]3O[C@H]3C[C@](C)(N)[C@H](O)[C@H](C)O3)Oc3ccc(cc3Cl)[C@H]2O)c2ccc(O)c(c2)-c2c(O)cc(O)cc21,broth microdilution,"ATCC 25922, cation-adjusted Mueller-Hinton broth",,43 µM
CCCCCCCC(=O)N[C@@H](CCN)C(=O)N[C@H](C(=O)N[C@@H](CCN)C(=O)N[C@H]1CCNC(=O)[C@H]([C@@H](C)O)NC(=O)[C@H](CCN)NC(=O)[C@H](CCN)NC(=O)[C@H](CCCc2ccccc2)NC(=O)[C@@H](Cc2ccccc2)NC(=O)[C@H](CCN)NC1=O)[C@@H](C)O,broth microdilution,"PAO1, colistin-susceptible",,< 0.125 µg/mL
CC(=O)N[C@@H](CC(C)C)C(=O)N[C@H]1CSSC[C@@H](C(=O)N2CCC[C@H]2C(N)=O)NC(=O)[C@H]([C@@H](C)O)NC(=O)[C@H](C(C)C)NC(=O)[C@H]([C@@H](C)O)NC(=O)[C@H](CCCCN)NC(=O)[C@H](CC(C)C)NC(=O)[C@H](Cc2ccccc2)NC(=O)[C@H](Cc2ccc(O)cc2)NC(=O)[C@H](CC(C)C)NC(=O)[C@H](CCCCN)NC(=O)[C@H](Cc2ccccc2)NC(=O)[C@H](CCCNC(=N)N)NC(=O)[C@H](CCC(N)=O)NC(=O)[C@H](CC(C)C)NC(=O)[C@H](CCCCN)NC(=O)[C@@H]2CCCN2C(=O)[C@H](CCCCN)NC(=O)[C@H](C(C)C)NC(=O)[C@H](CC(N)=O)NC(=O)[C@H](Cc2ccc(O)cc2)NC(=O)[C@H]([C@@H](C)O)NC1=O,broth dilution,CGMCC strain,24 h,20 to 40 µM
CC(=O)N[C@H](Cc1ccc(F)cc1)C(=O)N[C@@H](CCN)C(=O)N[C@H](C(=O)N[C@@H](CCN)C(=O)N[C@H]1CCNC(=O)[C@H]([C@@H](C)O)NC(=O)[C@H](CCN)NC(=O)[C@H](CCN)NC(=O)[C@H](CC(C)C)NC(=O)[C@@H](Cc2ccccc2)NC(=O)[C@H](CCN)NC1=O)[C@@H](C)O,broth microdilution,colistin-resistant isolates,,> 64 µg/mL
CC(C)C[C@@H]1NC(=O)[C@@H](CC(C)C)NC(=O)[C@H](CCN)NC(=O)[C@@H](NC(=O)[C@H](CCN)NC(=O)[C@@H](NC(=O)CCCCN=[N+]=[N-])[C@@H](C)O)CCNC(=O)[C@H]([C@@H](C)O)NC(=O)[C@H](CCN)NC(=O)[C@H](CCN)NC1=O,broth microdilution,"ATCC 13883, cation-adjusted Mueller-Hinton broth",,4 µM
CC[C@H](C)[C@H](N)C(=O)N[C@@H](CCCNC(=N)N)C(=O)N[C@H](C(=O)N[C@@H](Cc1c[nH]c2ccccc12)C(=O)N[C@@H](CCCCN)C(=O)N[C@@H](CCCCN)C(=O)N[C@H](C(=O)N[C@H](C(=O)N[C@@H](CCCNC(=N)N)C(=O)N[C@@H](CCCCN)C(=O)N[C@@H](Cc1c[nH]c2ccccc12)C(=O)N[C@@H](CCCCN)C(=O)N[C@@H](C)C(=O)N[C@H](C(=O)N[C@@H](Cc1c[nH]c2ccccc12)C(=O)N[C@@H](Cc1c[nH]cn1)C(N)=O)[C@@H](C)CC)C(C)C)[C@@H](C)CC)C(C)C,broth dilution,ATCC 27853,,50 µM
CC[C@H](C)[C@H](NC(=O)[C@@H]1CCCN1C(=O)CNC(=O)[C@H](CC(C)C)NC(=O)[C@H](CCCCN)NC(=O)[C@H](CCCNC(=N)N)NC(=O)[C@H](Cc1c[nH]c2ccccc12)NC(=O)[C@H](C)NC(=O)[C@H](CC(N)=O)NC(=O)[C@H](CCCCN)NC(=O)[C@H](CC(C)C)NC(=O)[C@H](CCCCN)NC(=O)[C@H](CC(N)=O)NC(=O)[C@H](CCCNC(=N)N)NC(=O)[C@H](C)NC(=O)[C@H](CCCNC(=N)N)NC(=O)[C@H](CCCNC(=N)N)NC(=O)[C@H](Cc1ccccc1)NC(=O)[C@H](Cc1c[nH]c2ccccc12)NC(=O)CN)C(=O)N[C@H](C(=O)NCC(=O)N1CCC[C@H]1C(=O)N[C@@H](CC(C)C)C(=O)N[C@@H](CC(C)C)C(=O)N[C@H](C(=O)N[C@@H](CCCNC(=N)N)C(=O)O)[C@@H](C)O)C(C)C,broth microdilution,"ATCC 27853, Mueller-Hinton broth","16 to 20 h, 37 °C",4.39 µg/mL
CC(C)C[C@@H]1NC(=O)[C@H](CCCCN)NC(=O)CNC(=O)[C@H]2CCCN2C(=O)[C@H](CCCCN)NC(=O)[C@H](CC(C)C)NC(=O)[C@H](CCCCN)NC(=O)C2CCC=CCCC(NC(=O)[C@H](CCCCN)NC1=O)C(=O)N[C@@H](CCCCN)C(=O)NC(C(N)=O)CCC=CCCC(N)C(=O)N[C@@H](CCCCN)C(=O)N2 (stereo partly shown),broth microdilution,"ATCC 9027, Mueller-Hinton broth","18 h, 37 °C",32 µM
CC[C@H](C)[C@H](NC(=O)[C@@H](CCCNC(=N)N)NC(=O)[C@H](CCCNC(=N)N)NC(=O)[C@@H]1CCCN1C(=O)[C@@H]1CCCN1C(=O)[C@H](CCCNC(=N)N)NC(=O)[C@@H]1CCCN1C(=O)[C@H](CCCNC(=N)N)NC(=O)[C@@H]1CCCN1C(=O)[C@H](CC(C)C)NC(=O)[C@H](Cc1ccc(O)cc1)NC(=O)[C@H](Cc1c[nH]cn1)NC(=O)[C@@H]1CCCN1C(=O)[C@H](CCCCN)NC(=O)[C@H](CC(=O)O)NC(=O)[C@@H](N)C(C)C)C(=O)N[C@@H](Cc1ccc(O)cc1)C(=O)N[C@@H](CC(N)=O)C(=O)N[C@H](CCCNC(=N)N)C(N)=O,broth microdilution,DSM 1117,"18 h, 37 °C, 25% MHB2",128 µg/mL
CN[C@H](CC(C)C)C(=O)N[C@H]1C(=O)N[C@@H](CC(N)=O)C(=O)N[C@H]2C(=O)N[C@H]3C(=O)N[C@H](C(=O)N[C@H](C(=O)NCc4cn(CC(=O)N[C@H](C(=O)N[C@@H](CCN)C(=O)N[C@H]5CCNC(=O)[C@H]([C@@H](C)O)NC(=O)[C@H](CCN)NC(=O)[C@H](CCN)NC(=O)[C@H](CC(C)C)NC(=O)[C@@H](CC(C)C)NC(=O)[C@H](CCN)NC5=O)[C@@H](C)O)nn4)c4cc(O)cc(O)c4-c4cc3ccc4O)[C@H](O)c3ccc(c(Cl)c3)Oc3cc2cc(c3O[C@@H]2O[C@H](CO)[C@@H](O)[C@H](O)[C@H]2O[C@H]2C[C@](C)(N)[C@H](O)[C@H](C)O2)Oc2ccc(cc2Cl)[C@H]1O,broth microdilution,"ATCC 25922, cation-adjusted Mueller-Hinton broth",,6 µM

# For quick reference, copied from above:
Compound,test,system,conditions,MIC
CC[C@H](C)[C@H](N)C(=O)N[C@@H](CCCNC(=N)N)C(=O)N[C@H](C(=O)N[C@@H](Cc1c[nH]c2ccccc12)C(=O)N[C@@H](CCCCN)C(=O)N[C@@H](CCCCN)C(=O)N[C@H](C(=O)N[C@H](C(=O)N[C@@H](CCCNC(=N)N)C(=O)N[C@@H](CCCCN)C(=O)N[C@@H](Cc1c[nH]c2ccccc12)C(=O)N[C@@H](CCCCN)C(=O)N[C@@H](C)C(=O)N[C@H](C(=O)N[C@@H](Cc1c[nH]c2ccccc12)C(=O)N[C@@H](Cc1c[nH]cn1)C(N)=O)[C@@H](C)CC)C(C)C)[C@@H](C)CC)C(C)C,broth dilution,ATCC 27853,,50 µM
